Measurements collected from several papers.
Each numbered part is a random draw from the data of one study; scales do not carry over between parts. Positions count from the first letter of the parent shown.

Sample 1
Target: RNA binding protein fox-1 homolog 2, RRM domain, GST-SBP tag (RBFOX2, Homo sapiens, UniProt O43251-10, residues 100-194)
Technique: RNA Bind-n-Seq
Form: RNA
Sample: in vitro
Concentration: 365 nM
Notes: natural RNA segment, single round, ends assumed
Relative to: no-protein control
Reading: higher = stronger binding
Measurement: RBNS enrichment (R)
Constant ends, left off below: GGGAGUUCUACAGUCCGACGAUC … UGGAAUUCUCGGGUGCCAA
Construct (chain): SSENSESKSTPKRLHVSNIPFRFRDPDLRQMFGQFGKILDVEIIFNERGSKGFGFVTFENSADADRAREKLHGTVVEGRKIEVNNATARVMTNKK
GGUUAUUUCUGCAUGGAAACUCAACUUCUUGGAUUAGCCGUCCCAGUGAAAAUCCUCAUUGUUGGAGUGUAAACCAAAUACGAAGCCCUCUUGCAAAGUAGCCUCUUUCA: 0.594
AUAUAUAAUAUGUAAUAAACCAGGAUGAAUAUUGCAUAUUCAAUAUCUCCAGUUUUAAUAGUGGCAUUGAAGUGGUUCUGGACCAAAAGAAGUCAGUUUGUGAAUGUUGU: 3.82
UUAAUAUGCCUGCGGGGUAACGAUGUUACCACAGCAAUGGCAGCUUCAACUUACUUGUUCUAAGCACAGGGUUUUUUUUAUUUAGCAUCAAAGGACAUUUUUACUUUCUU: 0.23
GGGAUUCAGUGUUGACUGUUCCCUGGUGUCCCCGCUGUCCUGUGUCGUCUGGUAUAGAAAGCGCAUGUUUCUGUAUCGGUGUCUGAUGAUAAGUUUCCUUGGAGUUUUAU: 31.9
UCAGGAUACUUAUGGGCAACAGUGGAAUAGACAAGUGAGGGCUUGAAAACGAUUCUGUCAAGAUCCAAUUGGCUCUAGAUCUACAUUCUUCAAACAAAAUUGGCGUAACU: 0.405
GGUGAGGGUCAGAGAAAGUUCUGGUGCUUUUCCUGUGCUCUAAGAGCUGAGAGCCAGAAAUGCAGAUUCAAUUUGGAAGGAGAUGGGAUAGCUGAAGAACUUACCACGUC: 0.747
CAUCGAAACCCUGGUUUCAGGAUGGAUCAAGUGCUGUUACAGCUCAUGUUCCUUAGACCUGAUUUGUUUUGAUAUUUUACUGCCUUUCCUUUUAAUUUUUGUUUGAAUGA: 1.51
CUCAAGAAAUUUUGAACUGAUGAGGGAGGAAGACUGGGGAAAGAAAGAAAGCACACACAGGUACUGGACAGAGGGAUUCUGGUAUGACCUGUGGCUGUGAGGUCUCAUAU: 2.28

Sample 2
Target: Histone acetyltransferase KAT6A, both winged helices, GST fusion (KAT6A, Homo sapiens, UniProt Q92794, residues 1-181)
Technique: protein binding microarray
Form: double-stranded DNA, one strand shown
Sample: in vitro
Concentration: not given
Notes: 8-mer, flanks averaged, mean of 2 arrays, mostly near background
Relative to: not given
Reading: higher = stronger binding
Measurement: E-score
Residues (chain): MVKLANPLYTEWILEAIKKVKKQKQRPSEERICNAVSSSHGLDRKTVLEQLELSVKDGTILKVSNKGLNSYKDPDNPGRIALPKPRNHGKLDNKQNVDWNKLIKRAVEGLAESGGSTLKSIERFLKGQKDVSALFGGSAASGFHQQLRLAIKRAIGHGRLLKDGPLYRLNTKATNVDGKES
AATCTCAA: -0.135
CAGGTCGG: 0.0521
AACGTCAA: 0.0322
CCGCGGGA: 0.341
ACTGGGGG: -0.202
GAATGACC: -0.0154
GAATTTAA: -0.101
GCCAACCA: 0.0356
CGTCAACA: 0.165
AAAATACC: 0.011
AACACACA: -0.13
CAGCCCTG: -0.113
TAAGAACA: 0.0285
AAGACGAC: -0.0507
CCCATGCA: -0.157
AGCTCACG: 0.0345
TAGATAAA: -0.14
AAATCCTG: -0.125
AGCAGAAC: -0.0908
CCTGCCTA: -0.208
TATGACGA: 0.00417

Sample 3
Target: ABI1, truncated, D143A, DHFR fusion (Arabidopsis thaliana)
Technique: DHFR PCA, deep sequencing
Sample: yeast
Notes: methotrexate growth selection, single substitutions
Together with: (+)-ABA 1.4 µM
Relative to: wild-type fitted maximum
Reading: higher = stronger binding
Measurement: relative binding score
Starting sequence: PYL1, truncated, DHFR fusion (Arabidopsis thaliana); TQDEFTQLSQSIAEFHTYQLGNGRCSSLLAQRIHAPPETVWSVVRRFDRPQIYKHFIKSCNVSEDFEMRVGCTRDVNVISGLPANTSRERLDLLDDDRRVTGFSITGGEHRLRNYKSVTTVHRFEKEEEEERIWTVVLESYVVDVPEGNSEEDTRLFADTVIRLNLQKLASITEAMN
D153V: -2.38%
G107L: -7.38%
L29R: 13.3%
A30W: 46.6%
Q31L: -2.1%
G21P: 34.2%
S63I: 33.7%
Q167M: 52.1%
V70I: 52.9%
H122N: 11.1%
C60R: 9%
I12R: 11.8%
E109Q: 42.7%
H122E: 11.5%

Other studies, line by line
PhoQ, residues 284 288 289 292 302 303 NLAAMI — fold induction (PhoP, residues 12 14 15 18 19 TPWTL (Escherichia coli, UniProt P23836); Sort-seq, item: YFP reporter; E. coli; PhoQ-PhoP variant library, together with: 10 µM Mg2+; relative to: high Mg2+ state, higher = stronger signaling): 20.2

For quick reference, copied from above (sample 3):
V70I: 52.9%
E109Q: 42.7%
G107L: -7.38%
